{"data": "Results of several laboratories", "note": "Each line is one published result; not all experiments were run side by side."}
{"SMILES": "O=C(Oc1nsnc1N1CCOCC1)c1ccccc1", "medium": "aqueous solution", "endpoint": "stability time", "value": "≥ 2 h"}
{"SMILES": "C[C@@H](O)[C@H](NC(=O)[C@H](CCC(=O)O)NC(=O)[C@H](Cc1ccccc1)NC(=O)[C@H](Cc1c[nH]c2ccccc12)NC(=O)[C@H](CCCCN)NC(=O)[C@H](CCCCN)NC(=O)[C@H](CCCCN)NC(=S)Nc1ccc2c(c1)C(=O)OC21c2ccc(O)cc2Oc2cc(O)ccc21)C(=O)N[C@@H](Cc1c[nH]c2ccccc12)C(=O)N[C@@H](Cc1ccccc1)C(=O)N[C@H](C(=O)N[C@@H](CCC(=O)O)C(=O)N[C@@H](Cc1c[nH]c2ccccc12)C(=O)N1CCC[C@H]1C(=O)N[C@@H](CCCCN)C(=O)N[C@@H](CCCCN)C(=O)N[C@@H](CCCCN)C(=O)N[C@@H](CCCCN)C(=O)O)[C@@H](C)O", "technique": "SDS-PAGE", "medium": "human corneal epithelial lysate", "tested at": "concentration not given", "time": "24 h", "endpoint": "stability", "value": "stable"}
{"SMILES": "O=C(N=P12CN3CN(CN(C3)C1)C2)c1ccccn1.[Cl][Au+][Cl].[O-][Cl+3]([O-])([O-])[O-]", "technique": "NMR", "medium": "acetonitrile", "temperature": "room temperature", "endpoint": "stability time", "value": "24 h"}
{"SMILES": "CSCC[C@@H]1NC(=O)[C@H](CCC(=O)O)NC(=O)[C@H](CC(C)C)NC(=O)[C@H](CC(C)C)NC(=O)[C@H](CCCCN)NC(=O)[C@H](CC(=O)O)NC(=O)[C@H](CC(=O)O)NC(=O)[C@H](CC(N)=O)NC(=O)[C@H](CC(=O)O)NC(=O)[C@@H]2CSSC[C@@H]3NC(=O)[C@H]([C@@H](C)O)NC(=O)[C@H](C(C)C)NC(=O)[C@@H]4CCCN4C(=O)[C@H](CSSC[C@H](NC(=O)[C@H](CC(=O)O)NC(=O)[C@H](Cc4ccccc4)NC(=O)[C@H](CC(N)=O)NC(=O)[C@H](CCCCN)NC(=O)[C@H](CCC(=O)O)NC(=O)[C@H](CC(=O)O)NC(=O)[C@H](C)NC(=O)[C@@H](NC(=O)[C@H](Cc4c[nH]cn4)NC(=O)[C@@H](N)CCC(=O)O)CSSC[C@@H](C(N)=O)NC(=O)[C@H](Cc4ccccc4)NC(=O)CNC3=O)C(=O)N[C@@H](CCCNC(=N)N)C(=O)N[C@@H](CCCNC(=N)N)C(=O)N[C@@H](CO)C(=O)N[C@@H](CC(C)C)C(=O)N[C@@H](CCCNC(=N)N)C(=O)N[C@@H](CC(N)=O)C(=O)NCC(=O)N[C@@H](CC(=O)O)C(=O)N2)NC(=O)[C@H](Cc2ccc(O)cc2)NC(=O)[C@H](Cc2ccc(O)cc2)NC(=O)CNC1=O", "medium": "100% human serum", "tested at": "40 µM", "time": "up to 24 h", "temperature": "37 °C", "endpoint": "stability", "value": "stable"}
{"SMILES": "[CH3][Ti+2][O]C(=O)c1ccc([S][Au][PH](c2ccccc2)(c2ccccc2)[c-]2cccc2)cc1.[Fe+2].c1cc[cH-]c1.c1cc[cH-]c1.c1cc[cH-]c1", "medium": "solid in air and CDCl3", "temperature": "room temperature", "endpoint": "stability time", "value": "≥ 120 h"}
{"SMILES": "CC(C)C[C@@H](NC(=O)[C@@H](CCCCN)NC(=O)CNC(=O)CNC(=O)[C@@H]1CSSC[C@H](N)C(=O)NCC(=O)N[C@@H](CCCNC(=N)N)C(=O)N[C@@H](CCCNC(=N)N)C(=O)N[C@@H](C)C(=O)NCC(=O)NCC(=O)N[C@@H](CO)C(=O)N1)C(=O)N[C@H](C)C(=O)N[C@H](CCCCN)C(=O)N[C@H](CC(C)C)C(=O)N[C@H](C)C(=O)N[C@H](CCCCN)C(=O)N[C@H](CCCCN)C(=O)N[C@H](CC(C)C)C(=O)N[C@H](C)C(=O)N[C@H](CCCCN)C(=O)N[C@H](CC(C)C)C(=O)N[C@H](C)C(=O)N[C@H](CCCCN)C(=O)O", "technique": "mass spectrometry", "medium": "saline or water", "time": "up to 7 days", "endpoint": "stability", "value": "stable"}
{"SMILES": "CC[C@H](C)[C@H](NC(=O)[C@@H]1CCCN1C(=O)[C@H](CCCNC(=N)N)NC(=O)[C@H](CC(=O)O)NC(=O)[C@H](CCCCN)NC(=S)Nc1ccc2c(c1)C(=O)OC21c2ccc(O)cc2Oc2cc(O)ccc21)C(=O)N[C@@H](Cc1ccccc1)C(=O)N[C@@H](CCC(N)=O)C(=O)N[C@@H](CC(C)C)C(=O)N[C@@H](CC(N)=O)C(=O)N[C@H](C(=O)N[C@@H](CO)C(=O)N[C@@H](Cc1ccc(O)cc1)C(=O)N[C@@H](Cc1c[nH]c2ccccc12)C(=O)N[C@@H](CCC(=O)O)C(=O)N[C@@H](CCSC)C(=O)NCC(=O)N[C@@H](C)C(=O)O)[C@@H](C)O", "technique": "SDS-PAGE", "medium": "human corneal epithelial lysate", "tested at": "concentration not given", "time": "2 h", "endpoint": "stability", "value": "stable"}
{"SMILES": "CC[C@H](C)[C@H](NC(=O)CNC(=O)[C@H](Cc1ccc(O)cc1)NC(=O)[C@H](CO)NC(=O)[C@H](Cc1ccc(O)cc1)NC(=O)[C@@H](NC(=O)[C@H](CC(=O)O)NC(=O)[C@H](CO)NC(=O)[C@H](CCC(N)=O)NC(=O)[C@H](Cc1ccccc1)NC(=O)[C@H](CO)NC(=O)[C@H](Cc1ccccc1)NC(=O)[C@@H]1CCCN1C(=O)[C@H](CC(N)=O)NC(=O)[C@H](CC(N)=O)NC(=O)[C@H](CC(=O)O)NC(=O)[C@H](CCC(N)=O)NC(=O)[C@@H]1CCCN1C(=O)[C@H](CCCNC(=N)N)NC(=O)[C@H](CCCNC(=N)N)NC(=O)[C@H](CCCNC(=N)N)NC(=O)[C@H](CCC(N)=O)NC(=O)[C@H](CCCNC(=N)N)NC(=O)[C@H](CCCNC(=N)N)NC(=O)[C@H](CCCCN)NC(=O)[C@H](CCCCN)NC(=O)[C@H](CCCNC(=N)N)NC(=O)CN)C(C)C)C(=O)N[C@H](C(=O)N[C@@H](CC(C)C)C(N)=O)C(C)C", "technique": "mass spectrometry", "medium": "PBS", "temperature": "37 °C", "endpoint": "stability time", "value": "≥ 4 h"}
{"SMILES": "CC[C@H](C)[C@H](NC(=O)[C@H](CCCNC(=N)N)NC(=O)[C@H](CCCNC(=N)N)NC(=O)[C@H](CC(C)C)NC(=O)[C@H](Cc1ccccc1)NC(=O)CNC(=O)CNC(=O)[C@@H](N)Cc1ccc(OC(C(=O)O)c2ccccc2[N+](=O)[O-])cc1)C(=O)O (stereo partly shown)", "temperature": "room temperature", "endpoint": "stability in dark", "value": "> 48 h"}
{"SMILES": "C1=CCCC=CCC1.F[P-](F)(F)(F)(F)F.[Pt+][c]1ccccc1P(=Nc1ccccc1)(c1ccccc1)c1ccccc1", "technique": "UV-vis spectroscopy", "medium": "DMSO:PBS 1:99", "endpoint": "stability time", "value": "24 h"}
{"note": "For quick reference, copied from above:"}
{"SMILES": "CSCC[C@@H]1NC(=O)[C@H](CCC(=O)O)NC(=O)[C@H](CC(C)C)NC(=O)[C@H](CC(C)C)NC(=O)[C@H](CCCCN)NC(=O)[C@H](CC(=O)O)NC(=O)[C@H](CC(=O)O)NC(=O)[C@H](CC(N)=O)NC(=O)[C@H](CC(=O)O)NC(=O)[C@@H]2CSSC[C@@H]3NC(=O)[C@H]([C@@H](C)O)NC(=O)[C@H](C(C)C)NC(=O)[C@@H]4CCCN4C(=O)[C@H](CSSC[C@H](NC(=O)[C@H](CC(=O)O)NC(=O)[C@H](Cc4ccccc4)NC(=O)[C@H](CC(N)=O)NC(=O)[C@H](CCCCN)NC(=O)[C@H](CCC(=O)O)NC(=O)[C@H](CC(=O)O)NC(=O)[C@H](C)NC(=O)[C@@H](NC(=O)[C@H](Cc4c[nH]cn4)NC(=O)[C@@H](N)CCC(=O)O)CSSC[C@@H](C(N)=O)NC(=O)[C@H](Cc4ccccc4)NC(=O)CNC3=O)C(=O)N[C@@H](CCCNC(=N)N)C(=O)N[C@@H](CCCNC(=N)N)C(=O)N[C@@H](CO)C(=O)N[C@@H](CC(C)C)C(=O)N[C@@H](CCCNC(=N)N)C(=O)N[C@@H](CC(N)=O)C(=O)NCC(=O)N[C@@H](CC(=O)O)C(=O)N2)NC(=O)[C@H](Cc2ccc(O)cc2)NC(=O)[C@H](Cc2ccc(O)cc2)NC(=O)CNC1=O", "medium": "100% human serum", "tested at": "40 µM", "time": "up to 24 h", "temperature": "37 °C", "endpoint": "stability", "value": "stable"}
{"SMILES": "[CH3][Ti+2][O]C(=O)c1ccc([S][Au][PH](c2ccccc2)(c2ccccc2)[c-]2cccc2)cc1.[Fe+2].c1cc[cH-]c1.c1cc[cH-]c1.c1cc[cH-]c1", "medium": "solid in air and CDCl3", "temperature": "room temperature", "endpoint": "stability time", "value": "≥ 120 h"}
